# Measurements of several laboratories.
# Every numbered part comes from another study and shows a few of its results, in no order.

# Block 1 — technique: RNA Bind-n-Seq; molecule type: RNA; matrix: in vitro; tested at: 100 nM; relative to: input RNA pool; reading: higher = stronger binding
# Target: RING finger protein unkempt homolog, zinc fingers 1-6, SBP tag (UNK, Homo sapiens, UniProt Q9C0B0, residues 30-357)
# Sequence of UniProt Q9C0B0 (30-357, looked up): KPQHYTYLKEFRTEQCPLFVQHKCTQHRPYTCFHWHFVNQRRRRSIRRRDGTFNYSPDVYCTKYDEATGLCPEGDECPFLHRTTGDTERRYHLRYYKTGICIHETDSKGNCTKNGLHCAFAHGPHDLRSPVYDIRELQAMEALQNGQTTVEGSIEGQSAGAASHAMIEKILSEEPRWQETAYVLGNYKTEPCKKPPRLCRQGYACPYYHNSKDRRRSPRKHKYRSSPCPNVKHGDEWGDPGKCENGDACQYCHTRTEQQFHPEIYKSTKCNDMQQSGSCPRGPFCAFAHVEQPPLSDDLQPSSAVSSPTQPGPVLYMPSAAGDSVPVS
# Notes: RNA with constant flanks, vertebrate orthologous sites, ends assumed
# All sequences stand within: GGGAGUUCUACAGUCCGACGAUC … CAACAGAGGAUUGAGCAUCA
Strand,bound/input enrichment
AUUUUUAAAAGUUUUUUUAAUUUAAUUUUUCCUUUUGGGGGUAAAGUUUGCUCUACCAAAUAGUGAUCGUAACAAAUUGAUCUGUUUUGGAUGUUGCUAUAGUGACAUGCAGUUAUAUAU,0.58 ratio
GUUAGGUCAUGACCCUUACAGGUUAGGUCAUGAUGCCUACAGAUUAGGUCAGGACCCUUAUAGAUUAGGCCAUGAUCCCUAUAGACUAACUCCAGAUCCCUAUAGGAUGUCACCUAGACC,0.463 ratio
UGCUUUUAAAUAAACGUCUGUAAAUGUAUAUUGAGAGAAUUGAAGUAUUUAUAAACAGAGUGAUUUAUUUAAGGGAAAGGUCAUUCCUCUUUCAUACGUGAUCUGUGUUAAUUCCAUUCC,0.236 ratio
AAGUAUCCCAGUUUACUGUGUUGAGUUGGCAUUGUACAGAAAUUAACAGCCAUAUUGGUCUAGAAAUGUUAAACUUAAUUUUUUUCCAUUUGUACAGGGGUAACACACUGUAUUAAAUAU,0.526 ratio
CGCUGUCGGACUGCAGGACACCAGGCCCUGUCCGCCGCUCACUGUCCCUCCACACUGAAUCUAGUUACAGGAAUUUAAUAUUUUUGAAAGUUUUACAUUGCUGUAUAUUCAAAGAUUUGU,0.574 ratio
GGGCGGCUGGUGGGGAAAUCCCCUGCCUUGGCCUUGCCUCCCCUUCCUGCCACCUGCCCCUAGUUAUUUUUUUUUUUUUACCACCAUGUGAUUAAGGUCGGCGCUGCCUCCCCCGACCCA,9.14 ratio
UCAUUGUACUGCCUGCGUCACCCUAGUUUUAAACCAGCUGCUGUGAUAACUAGUGUGUGCUAGCAGAAUUAUUUACUAUUACCUUUUAAACUAUGCGCUUUGCCCGAUAGCUGAAAGCAA,1.6 ratio
CAGCAUCCUUUCAUACUGUCUUGGGCCAGGGCCACAGCCGAUAUCUUAUACGACCUGUGUUUCGGACAUUUUUUAAAUCAUUGUAUCCAAGCAUCUCAGAGACAAGUGUGCUUCUUUGCG,0.674 ratio
UGUGGGGUUUAGGGGUGGGAAAGGGAAGAUAUAUGGACCUUUGUGGCAUUUUUAAGUGUUUAGAGCUCCUCCCCCUCCUUUUGUUUUGUAAUUUCCCUUGAACGUAAUGCACUGACCUGA,1.45 ratio
UCAGUCCCCUGGGCCGGGACGGAUUUUUUUUAACGUCUCGAAACUUAAACUCUGUGCUUGUAGGAUACUGUAACCUUUUUGUCUUUUUUUUUUUUUUUUUUUUUUUUUUUUAAAAAAAAA,1.49 ratio
GAAACUCCCCAUUGUCACUGAGAACCACCAAAUCUGACUUUUACAUUUGGUCUCAGAAUUUAGGUUCCUGCCCUGUUGGUUUUUUUUUUUUUUUUUUAAACAGUUUUCAAAAGUUCUUAA,1.41 ratio

# Block 2 — technique: RNA Bind-n-Seq; molecule type: RNA; matrix: in vitro; tested at: 365 nM; relative to: no-protein control; reading: higher = stronger binding
# Target: RNA binding protein fox-1 homolog 2, RRM domain, GST-SBP tag (RBFOX2, Homo sapiens, UniProt O43251-10, residues 100-194)
# Notes: natural RNA segment, single round, ends assumed
# All sequences stand within: GGGAGUUCUACAGUCCGACGAUC … UGGAAUUCUCGGGUGCCAA
# Construct (chain): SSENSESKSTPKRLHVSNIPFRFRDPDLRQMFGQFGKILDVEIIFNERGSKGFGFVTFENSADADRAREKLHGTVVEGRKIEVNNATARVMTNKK
Strand,RBNS enrichment (R)
UAUAUUUUUACAAAUAACUUUAUUUGCUUUACAUUAUUUCUAAAAGGAAAAAUCUGAGGAAACCCUUAUAUUUUCCAACAGGGUUCCUCUGUGUAGCUUUGCUUAUCCUG,0.538
AAUUCAUUGCCCUUGUGAUUUAGAAGAUUAUAACAGCUGUAUUUCAUAUUUGCCUCCUUAUAUAUAUCAAAGACCAAGGUAUUUCCUUCUGCUUCAAAAGAACAAAAUUG,0.428
AUGCAAAUAUUACAUAUGAUGGGUGCAUUGUCAGAGGGAAAAUAUAUGUGUAUGUACACAUGUGUAUGUACACACACACACACACCUGCCAUACACUUUAGAAGAACGCU,0.233
GAUCACCUGAGGACAGGAGUUCGAGACCAGUCUGGCCAACAUGGGGAAACCCCGUCUCUACUAAAAAUACAAAAAUUAGCCGGGCAUGGUGGUGGGCGCCUGUAAUCCCA,0.298
CACAAAGAGGCCUUGUGGGCAAACCUGGAGAACCCUCCUAAAUCCAUAGAGUUUUCAAAAUGUGAAUCUUUGGAAGCCUUGAGUUCAGAAUCUGCUGCUCUGGAAUAUUU,0.691
AAUUGCAUAUAUUGUAAAAUAGAGUCAGAUGUAUAUUUUAAAAUAAUUUCAGCUGACUUUCCUCUGACUGCUUUGUCUACUCAGUUAGAAAUAUUCAGAUACAAGUUUUA,0.678
GCCCACCCUGGAAACUGUUCCCCCUCCCCGAAUCUGGCUAAACAGCUGGCUGUAAUGCCUUAUCUCUUCUGGAAAGACGCUGGCUCAGACCGUGGAUUUGGCUUAGCACU,0.419
UAUUCUAGGAUCCUAUUAGUCUGCUUUUCAUAUACUGUACUUUGAGUAUAGGGAAUGGGCACUGAGUCACUGAGAACACUUGCAGGGUUGACUUUGCAUAUAGGGCUCCC,0.298
AGCCACGUGGGCAUCCACUCCUUUUCCUGCAAGAGAUGAUGGUUCCAUUGCUCUUGGCUUCAUGGUGUUCCUGGAAGGCAGAUGAGCUGGUCAUUUCGCCUGGGACUCGG,0.501
AAAAGGCUGCCUUCAAUUCUAAGCUUUGUUUUUUUGUGGUUUUUGUUAUUAUUUGUUUCUGUUGUUUACUCUUUAAUCGUAAGUACUUUUAAACCACGACCCAGGUCCUU,0.584
AAGUGAAGUUCACACCCAGCACCCACAACCUUUAUCAGUCCUCCCGACUCCCCACCCUUUUGCAUUCUGGGAGCCCACAUCUAUUUUUUACACCCCCCCCCACAAGAGGG,2.28
GACCUUUCAAAGCCAUUUUAGGCUGUUAGGGGCAGUGGAGGUAGAAUGACUCCUUGGGUAUUAGAGUUUCAACCAUGAAGUCUCUAACAAUGUAUUUUCUUCACCUCUGC,0.42

# Block 3 — technique: protein-binding microarray; molecule type: double-stranded DNA, one strand shown; matrix: in vitro; tested at: 2540 nM top; notes: 60-bp whole probe; together with: salmon DNA 0.4 mg/ml; relative to: random background probes; reading: higher = stronger binding; all sequences stand within: GCCTAGCAC … GTCTTGATTCGCTTGACGCTGCTG
# Target: Interferon regulatory factor 3, full length, phosphomimetic (IRF3, Homo sapiens, UniProt Q14653, residues 1-427, S386D/S396D/S398D/S402D/T404D/S405D)
# Target sequence (chain): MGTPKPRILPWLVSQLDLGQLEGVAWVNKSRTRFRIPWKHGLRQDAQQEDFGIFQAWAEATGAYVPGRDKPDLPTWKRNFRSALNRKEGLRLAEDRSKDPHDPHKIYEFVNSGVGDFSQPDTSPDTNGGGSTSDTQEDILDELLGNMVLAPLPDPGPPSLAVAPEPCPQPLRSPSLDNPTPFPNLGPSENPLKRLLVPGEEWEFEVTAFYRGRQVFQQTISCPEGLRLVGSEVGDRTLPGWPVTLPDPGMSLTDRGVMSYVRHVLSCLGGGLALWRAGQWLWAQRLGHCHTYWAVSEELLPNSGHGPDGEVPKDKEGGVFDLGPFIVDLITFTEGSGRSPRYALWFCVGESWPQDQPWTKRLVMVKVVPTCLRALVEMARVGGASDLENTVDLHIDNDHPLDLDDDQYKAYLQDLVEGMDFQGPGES
Strand,fitted relative affinity
CTGTTTCTACTGTCTGTTTCCGTGCTA,2.45 z-score
ATCATTCTCACTGCAGCCTTGTGCTAG,1.16 z-score
TTGGATTTCAGACTGGATTAGTGCTAG,0.219 z-score
TTAAGTCTCCTACTGCTTTAGTGCTAG,1.12 z-score
GTAGGTTTCGGGTTTCGGTTAGTGCTA,6.32 z-score
TTCAGTTTTCCTATGTCATTGTGCTAG,2.79 z-score
TCATGAGTCCCTATCTCACTGTGCTAG,0.421 z-score
TTAGGACTGGGTTTTCGGTTAGTGCTA,0.542 z-score
GAATGTCTTCCCCTCTCTTTGTGCTAG,0.332 z-score
TTAGGTTTCGTGTATCGGTTAGTGCTA,2.92 z-score
GACGAACTGAGTTTCGAGAAGTGCTAG,0.813 z-score
TTAGATATCATTTTCGATTAGTGCTAG,3.25 z-score
AACGGTTTCGGTCTCGGGACGTGCTAG,8.67 z-score
TTAGGATTCGGTCTCGGTTAGTGCTAG,3.49 z-score
GACGGTGTCCTTTTCCTGACGTGCTAG,4.35 z-score
TTAGGATTGCTTATCCTTTAGTGCTAG,0.458 z-score
TTAGATATCAGTCTCGGTTAGTGCTAG,1.38 z-score
TTAGGTCTCCTTATCCTTTCGTGCTAG,3.2 z-score
GACGGTTTCGACACTGGCGACGTGCTA,3.36 z-score
GTAGGTTTCGACTATCGGTTAGTGCTA,2.75 z-score
TTCGGACTGGGTCTCGGTTAGTGCTAG,-0.483 z-score
TTAGAACTGAGACTAGATTAGTGCTAG,-0.302 z-score
GACGTTTTCGGGTATCGGGACGTGCTA,2.28 z-score

# Block 4 — technique: universal PBM; molecule type: double-stranded DNA, one strand shown; matrix: in vitro; tested at: 600 nM; reading: higher = stronger binding
# Target: Sal-like protein 4, full length isoform A (SALL4, Homo sapiens, UniProt Q9UJQ4, residues 1-1053)
# Sequence of UniProt Q9UJQ4 (whole entry, looked up): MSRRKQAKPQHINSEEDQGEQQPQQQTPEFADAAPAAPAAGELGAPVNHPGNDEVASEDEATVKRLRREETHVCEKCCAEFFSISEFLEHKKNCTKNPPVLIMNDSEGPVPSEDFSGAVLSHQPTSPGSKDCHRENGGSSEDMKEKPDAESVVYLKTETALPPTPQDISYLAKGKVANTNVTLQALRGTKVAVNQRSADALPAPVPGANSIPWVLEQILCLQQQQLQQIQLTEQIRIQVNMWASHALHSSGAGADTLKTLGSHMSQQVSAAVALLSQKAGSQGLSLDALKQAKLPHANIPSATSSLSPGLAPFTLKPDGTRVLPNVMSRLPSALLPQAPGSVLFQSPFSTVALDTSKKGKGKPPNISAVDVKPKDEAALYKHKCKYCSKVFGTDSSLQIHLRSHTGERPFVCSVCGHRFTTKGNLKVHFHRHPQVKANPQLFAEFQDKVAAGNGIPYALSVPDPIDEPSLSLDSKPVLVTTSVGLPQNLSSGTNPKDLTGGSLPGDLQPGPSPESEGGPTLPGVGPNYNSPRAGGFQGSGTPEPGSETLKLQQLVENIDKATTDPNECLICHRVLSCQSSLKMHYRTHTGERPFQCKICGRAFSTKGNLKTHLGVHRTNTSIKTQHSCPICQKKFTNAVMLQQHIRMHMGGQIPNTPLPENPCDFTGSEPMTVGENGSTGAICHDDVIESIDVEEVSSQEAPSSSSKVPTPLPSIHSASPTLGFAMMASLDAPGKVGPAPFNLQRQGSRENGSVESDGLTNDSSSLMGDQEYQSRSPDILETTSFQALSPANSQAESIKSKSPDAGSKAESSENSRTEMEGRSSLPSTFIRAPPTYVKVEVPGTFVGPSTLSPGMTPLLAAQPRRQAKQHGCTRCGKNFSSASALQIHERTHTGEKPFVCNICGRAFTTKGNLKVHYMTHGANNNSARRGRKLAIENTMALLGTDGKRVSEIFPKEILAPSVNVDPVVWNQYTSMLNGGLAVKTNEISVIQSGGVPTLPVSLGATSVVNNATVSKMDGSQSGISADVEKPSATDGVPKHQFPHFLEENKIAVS
# Notes: 8-mer, flanks averaged, mean of replicates
Strand,E-score
ATTAAGTG,0.232
GGACGAAA,-0.098
CAAATCGA,0.168
AACTAGCA,0.0361
ATAGTGAA,0.258
AGAAGGGG,-0.271
CAATCAGA,0.0196
ACACTATG,0.138
CTCGGATA,0.0663
GGAGAATA,0.2
AGTGTGGG,0.0133
CTCTTACC,-0.0719
AACTGATT,0.136
GAGATTAA,0.143
GATGTAGA,0.131
GTGACCCA,-0.162
CTAGGAAA,0.0762
AGGACCGC,-0.223
GACGAGGC,-0.226
AATGCTAT,0.249
GCTCTTCC,-0.203
CCCTGGTC,-0.33
CACATTTC,0.163
AGACTGTG,0.00239
ATCCTCCC,-0.132

# Repeated from above (block 1):
Strand,bound/input enrichment
AUUUUUAAAAGUUUUUUUAAUUUAAUUUUUCCUUUUGGGGGUAAAGUUUGCUCUACCAAAUAGUGAUCGUAACAAAUUGAUCUGUUUUGGAUGUUGCUAUAGUGACAUGCAGUUAUAUAU,0.58 ratio
GUUAGGUCAUGACCCUUACAGGUUAGGUCAUGAUGCCUACAGAUUAGGUCAGGACCCUUAUAGAUUAGGCCAUGAUCCCUAUAGACUAACUCCAGAUCCCUAUAGGAUGUCACCUAGACC,0.463 ratio
UGCUUUUAAAUAAACGUCUGUAAAUGUAUAUUGAGAGAAUUGAAGUAUUUAUAAACAGAGUGAUUUAUUUAAGGGAAAGGUCAUUCCUCUUUCAUACGUGAUCUGUGUUAAUUCCAUUCC,0.236 ratio
AAGUAUCCCAGUUUACUGUGUUGAGUUGGCAUUGUACAGAAAUUAACAGCCAUAUUGGUCUAGAAAUGUUAAACUUAAUUUUUUUCCAUUUGUACAGGGGUAACACACUGUAUUAAAUAU,0.526 ratio
CGCUGUCGGACUGCAGGACACCAGGCCCUGUCCGCCGCUCACUGUCCCUCCACACUGAAUCUAGUUACAGGAAUUUAAUAUUUUUGAAAGUUUUACAUUGCUGUAUAUUCAAAGAUUUGU,0.574 ratio
GGGCGGCUGGUGGGGAAAUCCCCUGCCUUGGCCUUGCCUCCCCUUCCUGCCACCUGCCCCUAGUUAUUUUUUUUUUUUUACCACCAUGUGAUUAAGGUCGGCGCUGCCUCCCCCGACCCA,9.14 ratio
